{"data": "Assay results pooled from the literature", "note": "Protocols differ between the studies behind these lines. ± marks the error that the study gave."}
{"SMILES": "C[C@@H](O)[C@H](NC(=O)c1ccc(C#Cc2ccccc2)cc1)C(=O)NO", "system": "octanol/buffer", "setting": "pH 11", "measurement": "logP", "result": 0.9}
{"SMILES": "CC(C)C[C@H](NC(=O)[C@@H](Cc1c[nH]c2ccccc12)NC(=O)[C@H](Cc1ccc(O)cc1)NC(=O)[C@H](CO)NC(=O)[C@H](Cc1c[nH]c2ccccc12)NC(=O)[C@H](Cc1c[nH]cn1)NC(=O)[C@@H]1CCC(=O)N1)C(=O)N[C@@H](CCCNC(=N)N)C(=O)N1CCC[C@H]1C(=O)NCC(N)=O", "system": "Chinese CPP children", "setting": "intramuscular, 22.5 mg, 12 months, day 1, month 6", "measurement": "patients, drug-related Constipation TEAEs", "result": "1.5%"}
{"SMILES": "CC[C@H](C)[C@H](NC(=O)[C@H](CO)NC(=O)[C@H](Cc1ccc(O)cc1)NC(=O)[C@H](CC(=O)O)NC(=O)[C@H](CO)NC(=O)[C@@H](NC(=O)[C@H](Cc1ccccc1)NC(=O)[C@@H](NC(=O)CNC(=O)[C@H](CCC(=O)O)NC(=O)[C@H](C)NC(=O)[C@@H](N)Cc1ccc(O)cc1)[C@@H](C)O)[C@@H](C)CC)C(=O)N[C@@H](C)C(=O)N[C@@H](CCSC)C(=O)N[C@@H](CC(=O)O)C(=O)N[C@@H](CCCCN)C(=O)N[C@H](C(=O)N[C@@H](Cc1c[nH]cn1)C(=O)N[C@@H](CCC(N)=O)C(=O)N[C@@H](CCC(N)=O)C(=O)N[C@@H](CC(=O)O)C(=O)N[C@@H](Cc1ccccc1)C(=O)N[C@H](C(=O)N[C@@H](CC(N)=O)C(=O)N[C@@H](Cc1c[nH]c2ccccc12)C(=O)N[C@@H](CC(C)C)C(=O)N[C@@H](CC(C)C)C(=O)N[C@@H](C)C(=O)N[C@@H](CCC(N)=O)C(=O)N[C@@H](CCCCN)C(=O)NCC(=O)N[C@@H](CCCCN)C(=O)N[C@@H](CCCCN)C(=O)N[C@@H](CC(N)=O)C(=O)N[C@@H](CC(=O)O)C(=O)N[C@@H](Cc1c[nH]c2ccccc12)C(=O)N[C@@H](CCCCN)C(=O)N[C@@H](Cc1c[nH]cn1)C(=O)N[C@@H](CC(N)=O)C(=O)N[C@H](C(=O)N[C@H](C(=O)N[C@@H](CCC(N)=O)C(=O)O)[C@@H](C)O)[C@@H](C)CC)C(C)C)[C@@H](C)CC", "assay": "GIPR luciferase bioassay", "system": "C57BL/6 mice male, serum", "setting": "subcutaneous, 1.25 µg, 1 h", "measurement": "active peptide in serum", "result": "not detected"}
{"SMILES": "Cn1c(=O)oc2ccc(-c3ccc(C[C@@H](C#N)NC(=O)[C@@H]4CNCCCO4)cc3)cc21", "system": "human, mild renal impairment, plasma", "setting": "oral, 25 mg single dose, mean", "measurement": "Vd/F", "result": "397 L"}
{"SMILES": "C=CC(=O)Nc1cc(Nc2nccc(Nc3cc(Cl)c(F)cc3C(C)(C)O)n2)c(OC)cc1N1CC[C@@H](N(C)C)C1", "system": "human patients, plasma", "setting": "oral, 200 mg daily, cycle 2 day 1, geometric mean", "measurement": "Css,max", "result": "402 ng/mL"}
{"SMILES": "CCc1cc(C(=O)NC)c2nccc(N3CCc4c(cc(Cn5ccnc5)cc4-c4cn(C)nc4C(F)(F)F)C3=O)c2c1", "system": "Sprague Dawley rat", "setting": "oral, 50 mg/kg once daily, day 1, 7-day toxicology study", "measurement": "body weight", "result": "222 ± 9.2 g"}
{"SMILES": "CC(C)COC(=O)c1ccc2c(c1)/C(=N/Nc1ccc(S(N)(=O)=O)cc1)C(=O)N2", "system": "octanol/buffer", "setting": "pH 11", "measurement": "logP", "result": 1.19}
{"SMILES": "CNCc1ccc(-c2[nH]c3cc(F)cc4c3c2CCNC4=O)cc1", "system": "patients", "setting": "oral, 840 mg twice daily, all grades", "measurement": "decreased appetite incidence", "result": "33.3%"}
{"SMILES": "C[C@H]1Oc2cc(cnc2N)-c2c(nn(C)c2C#N)CN(C)C(=O)c2ccc(F)cc21", "system": "human patients, plasma", "setting": "oral, dose not given, cycle 2 day 1, median, with: avelumab", "measurement": "dose-normalised AUClast", "result": "45 ng·h/mL/mg"}
{"SMILES": "CCCCCCOC(=O)NC(=N)c1ccc(NCc2nc3cc(C(=O)N(CCC(=O)OCC)c4ccccn4)ccc3n2C)cc1", "system": "human", "setting": "oral, 75 mg, compound alone", "measurement": "participants with TEAEs", "result": "25%"}
{"SMILES": "CCCCCCCCCOC(=O)CCCCCCCN(CCO)CCCCCCCC(=O)OC(CCCCCCCC)CCCCCCCC", "setting": "pH 7.5, formulated", "measurement": "zeta potential", "result": "-0.07 mV"}
{"SMILES": "COc1cc([N+](=O)[O-])ccc1NC(=O)CN1CCOCC1", "system": "octanol/buffer", "setting": "pH 11, known kinase inactives set", "measurement": "logP", "result": 2}
{"SMILES": "CC(C)(C(=O)N1CCOc2c(C#N)cncc2C1)C(F)F", "assay": "item: phlebitis", "system": "human, both sexes", "setting": "oral, 20 mg once daily, 14 days, multiple ascending dose", "measurement": "subjects with TEAE", "result": "0%"}
{"SMILES": "COc1cc(C(=O)N2CCC3(CC2)CC(=O)c2c(cnn2C(C)C)C3)cc(-c2ccc(C(=O)O)cc2)n1", "assay": "item: direct LDL cholesterol", "system": "human, fasting serum", "setting": "10 mg every 12 h, day 13, adjusted geometric mean", "how to read": "baseline: baseline", "measurement": "percentage change from baseline", "result": "-2.4%"}
{"SMILES": "O=C(O)[C@H]1O[C@@H](Oc2cc(-c3oc4cc(O)cc(O)c4c(=O)c3O)ccc2O)[C@H](O)[C@@H](O)[C@@H]1O", "system": "human, cerebrospinal fluid", "setting": "concentration not given, median", "measurement": "CSF concentration", "result": "4.5 nM"}
{"SMILES": "NC1(C(=O)N[C@@H](CCO)c2ccc(Cl)cc2)CCN(c2nc[nH]c3nccc2-3)CC1", "system": "metastatic CRPC patients", "setting": "400 mg b.i.d., any grade, treatment-related, with: enzalutamide 160 mg daily", "measurement": "incidence of Diarrhoea", "result": "57.1%"}
{"SMILES": "C[C@]12CC[C@@H]3c4ccc(O)cc4C[C@@H](CCCCCCCCC[S+]([O-])CCCC(F)(F)C(F)(F)F)[C@H]3[C@@H]1CC[C@@H]2O (stereo partly drawn)", "system": "non-tumour-bearing mouse, brain", "setting": "subcutaneous, single dose, day 8, co-dosed orally daily 7 days", "measurement": "total brain concentration", "result": "11 nmol/L"}
{"SMILES": "N#C[C@@]1(c2ccc3c(N)ncnn23)O[C@H](CO)[C@@H](O)[C@H]1O", "system": "male beagle dogs, plasma", "setting": "oral capsule, 6.5 mg/kg", "measurement": "lag time", "result": "0 h"}
{"SMILES": "N#Cc1ccc2c(c1)[C@H]1CCCN(C(=O)c3ccc4[nH]cnc4c3)[C@H]1C2", "system": "human males", "setting": "80 mg, day 7", "measurement": "total testosterone level", "result": "14.1 nmol/L"}
{"SMILES": "COc1cc(Nc2ncc3c(n2)-c2ccc(Cl)cc2C(c2c(F)cccc2OC)=NC3)ccc1C(=O)O", "assay": "item: Fatigue, grade 1", "system": "cancer patients, phase 1/2", "setting": "oral, dose not given, with: pembrolizumab", "measurement": "patients with adverse event", "result": "46%"}
{"SMILES": "CCO[C@H]1CCN(Cc2c(OC)cc(C)c3[nH]ccc23)[C@H](c2ccc(C(=O)O)cc2)C1", "system": "healthy human controls, plasma", "setting": "oral, 200 mg single dose, hepatic impairment phase I study", "measurement": "unbound Cmax (mean)", "result": "746 ng/mL"}
{"note": "For quick reference, copied from above:"}
{"SMILES": "N#C[C@@]1(c2ccc3c(N)ncnn23)O[C@H](CO)[C@@H](O)[C@H]1O", "system": "male beagle dogs, plasma", "setting": "oral capsule, 6.5 mg/kg", "measurement": "lag time", "result": "0 h"}
{"SMILES": "N#Cc1ccc2c(c1)[C@H]1CCCN(C(=O)c3ccc4[nH]cnc4c3)[C@H]1C2", "system": "human males", "setting": "80 mg, day 7", "measurement": "total testosterone level", "result": "14.1 nmol/L"}
{"SMILES": "CC(C)(C(=O)N1CCOc2c(C#N)cncc2C1)C(F)F", "assay": "item: phlebitis", "system": "human, both sexes", "setting": "oral, 20 mg once daily, 14 days, multiple ascending dose", "measurement": "subjects with TEAE", "result": "0%"}
